{"data": "Assay results pooled from the literature", "had": "had (Sphingobium sp. TCM1, UniProt A0A077JBW9)", "note": "Each line is one published result; not all experiments were run side by side. ± marks the error that the study gave."}
{"SMILES": "CC[C@H](C)[C@H](NC(=O)[C@H](Cc1ccccc1)NC(=O)[C@H](CC(=O)O)NC(=O)[C@H](CCCCN)NC(=O)[C@H](C)NC(=O)[C@H](CCCCN)NC(=O)[C@H](CC(N)=O)NC(=O)[C@H](CC(C)C)NC(=O)[C@H](Cc1c[nH]c2ccccc12)NC(=O)[C@H](CCC(=O)O)NC(=O)[C@H](CCCCN)NC(=O)[C@H](Cc1c[nH]c2ccccc12)NC(=O)CNC(=O)[C@H](C)N)C(=O)N[C@@H](CCCCN)C(=O)N[C@@H](CCC(=O)O)C(=O)N[C@@H](CCCCN)C(=O)NCC(=O)N[C@@H](CC(C)C)C(=O)NCC(=O)N[C@@H](CCSC)C(=O)N[C@@H](CC(C)C)C(=O)N[C@@H](CO)C(=O)N[C@@H](C)C(=O)N[C@@H](C)C(=O)N[C@@H](C)C(=O)N[C@@H](CC(N)=O)C(=O)N[C@@H](C)C(=O)N[C@@H](C)C(=O)N[C@@H](CC(C)C)C(=O)N[C@@H](CC(N)=O)C(=O)O", "tested on": "HEK293 cells", "test": "resazurin", "setting": "24 h", "measurement": "CC50", "value": "16.9 µM"}
{"SMILES": "CO[P@](=O)(Oc1ccccc1)Oc1ccc([N+](=O)[O-])cc1", "tested on": "had", "test": "p-nitrophenyl substrate hydrolysis, substrate", "measurement": "Km", "value": "250 ± 70 µM"}
{"SMILES": "CC[C@H](C)[C@H](NC(=O)CNC(=O)[C@H](CC(C)C)NC(=O)CNC(=O)[C@H](CCCCN)NC(=O)[C@H](CCC(=O)O)NC(=O)[C@H](CCCCN)NC(=O)[C@@H](NC(=O)[C@H](Cc1ccccc1)NC(=O)[C@H](CC(=O)O)NC(=O)[C@H](CCCCN)NC(=O)[C@H](C)NC(=O)[C@H](CCCCN)NC(=O)[C@H](CC(N)=O)NC(=O)[C@H](CC(C)C)NC(=O)[C@H](Cc1c[nH]c2ccccc12)NC(=O)[C@H](CC(=O)O)NC(=O)[C@H](CCCCN)NC(=O)[C@@H](NC(=O)CNC(=O)[C@H](C)N)[C@@H](C)O)[C@@H](C)CC)C(=O)N[C@@H](CC(C)C)C(=O)N[C@@H](CO)C(=O)N[C@@H](C)C(=O)N[C@@H](C)C(=O)N[C@@H](C)C(=O)N[C@@H](CC(N)=O)C(=O)N[C@@H](C)C(=O)N[C@@H](C)C(=O)N[C@H](C(=O)N[C@@H](CC(N)=O)C(=O)O)[C@@H](C)CC", "tested on": "Lucilia cuprina", "setting": "thorax injection, 24 h", "measurement": "LD50", "value": "> 50 nmol/g"}
{"SMILES": "CSCC[C@H](NC(=O)[C@@H](N)[C@@H](C)O)C(=O)N[C@@H](Cc1ccc(O)cc1)C(=O)N[C@@H](Cc1ccc(O)cc1)C(=O)N[C@@H](CCCCN)C(=O)N[C@@H](CC(=O)O)C(=O)N[C@H](C(=O)N[C@H](C(=O)N[C@H](C(=O)O)C(C)C)[C@@H](C)O)C(C)C", "tested on": "HLA class I histocompatibility antigen, A alpha chain, allele A*02:01 (Homo sapiens, UniProt P04439)", "test": "binding, competitive radioligand binding", "setting": "2 d, added: radiolabelled reference peptide", "measurement": "Kd", "value": "< 0.025 µM"}
{"SMILES": "CC[C@H](C)[C@H](NC(=O)[C@H](Cc1ccccc1)NC(=O)[C@H](CC(=O)O)NC(=O)[C@H](CCCCN)NC(=O)[C@H](C)NC(=O)[C@H](CCCCN)NC(=O)[C@H](CC(N)=O)NC(=O)[C@H](CC(C)C)NC(=O)[C@H](Cc1c[nH]c2ccccc12)NC(=O)[C@H](CCC(=O)O)NC(=O)[C@H](CCCCN)NC(=O)[C@@H](NC(=O)CN)[C@@H](C)O)C(=O)N[C@@H](CCCCN)C(=O)N[C@@H](CCC(=O)O)C(=O)N[C@@H](CCCCN)C(=O)NCC(=O)N[C@@H](CC(C)C)C(=O)NCC(=O)N[C@@H](CCSC)C(=O)N[C@@H](CC(C)C)C(=O)N[C@@H](CO)C(=O)N[C@@H](C)C(=O)N[C@@H](C)C(=O)N[C@@H](C)C(=O)N[C@@H](CC(N)=O)C(=O)N[C@@H](C)C(=O)N[C@@H](C)C(=O)N[C@@H](CC(C)C)C(=O)N[C@@H](CC(N)=O)C(=O)O", "tested on": "HEK293 cells", "test": "resazurin", "setting": "24 h", "measurement": "CC50", "value": "> 250 µM"}
{"SMILES": "CO[P@@](=O)(Oc1ccc([N+](=O)[O-])cc1)OC(C)C", "tested on": "had", "test": "p-nitrophenyl substrate hydrolysis, substrate", "measurement": "Km", "value": "36 ± 6 µM"}
{"SMILES": "CC(C)C[C@@H]1NC(=O)[C@H](CCCNC(=N)N)NC(=O)[C@@H]2CCCN2C(=O)[C@@H]2CSSC[C@H](NC(=O)CNC(=O)[C@@H]3CCCN3C(=O)[C@H](CCCCN)NC(=O)[C@H](CC(=O)O)NC(=O)[C@@H](NC(=O)CN)C(C)C)C(=O)N[C@@H](CCCNC(=N)N)C(=O)N[C@@H](Cc3ccc(O)cc3)C(=O)N[C@@H](CC(C)C)C(=O)N[C@@H](Cc3ccccc3)C(=O)NCC(=O)NCC(=O)N[C@H]3CSSC[C@H](NC(=O)CNC1=O)C(=O)N[C@@H](CCCCN)C(=O)NCC(=O)N[C@@H](CCCCN)C(=O)NCC(=O)N[C@@H](Cc1c[nH]cn1)C(=O)N[C@@H](CC(=O)O)C(=O)N[C@@H](Cc1ccc(O)cc1)C(=O)N[C@H](C(=O)N[C@@H](C)C(=O)N[C@@H](Cc1c[nH]c4ccccc14)C(=O)N[C@@H](CC(=O)O)C(=O)NCC(=O)N[C@H](C(=O)N[C@@H](Cc1ccccc1)C(=O)N[C@@H](CO)C(=O)N[C@@H](CC(=O)O)C(=O)O)[C@@H](C)O)CSSC[C@H](NC(=O)[C@H](CC(=O)O)NC(=O)[C@H](CC(=O)O)NC(=O)[C@H](CC(=O)O)NC(=O)[C@H](CO)NC(=O)[C@H](CCCCN)NC3=O)C(=O)N2", "tested on": "Potassium voltage-gated channel subfamily B member 1 (KCNB1, Homo sapiens, UniProt Q14721)", "test system": "tsA201", "setting": "concentration not given", "measurement": "activation V0.5", "value": "32.9 ± 0.4 mV"}
{"SMILES": "CC[C@H](C)[C@@H]1NC(=O)[C@H](CCCNC(=N)N)NC(=O)[C@H](CO)NC(=O)[C@H](CCC(=O)O)NC(=O)[C@H](CC(=O)O)NC(=O)CNC(=O)CNC(=O)[C@H]([C@@H](C)O)NC(=O)[C@H](Cc2ccccc2)NC(=O)[C@H](CO)NC(=O)[C@H]([C@@H](C)O)NC(=O)[C@H](C)NC(=O)[C@@H]2CSSC[C@@H](C(=O)N[C@@H](Cc3ccc(O)cc3)C(=O)N[C@@H](Cc3ccccc3)C(=O)N[C@H](C(=O)N[C@H](C(=O)NCC(=O)O)[C@@H](C)O)[C@@H](C)O)NC(=O)[C@H]([C@@H](C)O)NC(=O)[C@H](CSSC[C@H](NC(=O)[C@H](CCC(=O)O)NC(=O)[C@H](CO)NC(=O)[C@H](CCCCN)NC(=O)[C@H](Cc3ccc(O)cc3)NC(=O)[C@@H]3CCCN3C(=O)[C@H](Cc3ccccc3)NC(=O)[C@H](CCCCN)NC(=O)[C@H](CCCNC(=N)N)NC(=O)[C@H](CCCCN)NC(=O)[C@H](CCCCN)NC(=O)[C@H](Cc3ccc(O)cc3)NC(=O)[C@@H]3CCCN3C(=O)[C@@H](NC(=O)[C@H](CC(=O)O)NC(=O)[C@H](CCCCN)NC(=O)[C@H](CCCCN)NC(=O)[C@@H](NC(=O)[C@@H](NC(=O)[C@@H](N)CCC(=O)O)C(C)C)[C@@H](C)CC)[C@@H](C)O)C(=O)N[C@@H](CC(C)C)C(=O)N[C@@H](CCCCN)C(=O)N[C@@H](C)C(=O)N2)NC(=O)[C@H](CCCCN)NC(=O)[C@H](Cc2ccccc2)NC(=O)[C@H](Cc2ccccc2)NC(=O)CNC(=O)[C@@H]2CCCN2C(=O)[C@H](CCCCN)NC(=O)CNC(=O)[C@H](CCC(=O)O)NC(=O)[C@H](CCC(N)=O)NC1=O", "tested on": "Potassium voltage-gated channel subfamily KQT member 1 (KCNQ1, Homo sapiens, UniProt P51787)", "test": "ion current, patch clamp", "measurement": "Hill slope", "value": "1.74 ± 0.04"}
